{"data": "Experimental data of several laboratories", "note": "Each line is one published result; not all experiments were run side by side. ± gives the spread as reported.", "chain of UniProt P04062 (whole entry, unmodified, looked up)": "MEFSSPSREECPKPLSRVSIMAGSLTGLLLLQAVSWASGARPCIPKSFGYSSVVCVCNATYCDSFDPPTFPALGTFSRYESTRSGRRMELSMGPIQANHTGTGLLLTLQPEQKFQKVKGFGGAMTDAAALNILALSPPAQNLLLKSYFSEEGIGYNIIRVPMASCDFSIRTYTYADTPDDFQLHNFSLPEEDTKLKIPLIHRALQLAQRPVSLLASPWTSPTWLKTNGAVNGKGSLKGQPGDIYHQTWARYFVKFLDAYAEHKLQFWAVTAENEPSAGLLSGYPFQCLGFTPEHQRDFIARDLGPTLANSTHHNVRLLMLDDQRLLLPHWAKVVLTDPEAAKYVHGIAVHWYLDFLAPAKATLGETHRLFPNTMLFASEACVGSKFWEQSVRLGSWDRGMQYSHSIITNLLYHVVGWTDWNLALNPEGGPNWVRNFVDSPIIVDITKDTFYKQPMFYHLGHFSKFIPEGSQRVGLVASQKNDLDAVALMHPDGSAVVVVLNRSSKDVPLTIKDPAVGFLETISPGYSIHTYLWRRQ"}
{"SMILES": "CC[C@H]1OC(=O)[C@H](C)[C@@H](OC(=O)Cc2c(F)cccc2F)[C@H](C)[C@@H](O[C@@H]2O[C@H](C)C[C@H](N(C)C)[C@H]2O)[C@](C)(OC)C[C@@H](C)C(=O)[C@H](C)[C@@H](O)[C@]1(C)O", "tested on": "Escherichia coli ribosome", "test": "in vitro transcription-translation, inhibitor", "endpoint": "IC50", "value": "180 nM"}
{"SMILES": "CSc1ccc(CN2CCCC(CNC(=O)c3ccc(F)cc3)C2)cc1 (stereo not shown)", "tested on": "Trypanosoma cruzi", "test": "reporter mRNA translation, inhibitor, refers to: capped polyadenylated Renilla luciferase mRNA", "system": "cell-free extract", "conditions": "concentration not given", "how to read": "relative to: control RNA", "endpoint": "relative translation", "value": "104%"}
{"SMILES": "CC[C@H]1OC(=O)[C@H](C)[C@@H](O[C@H]2C[C@@](C)(OC)[C@@H](O)[C@H](C)O2)[C@H](C)[C@@H](O[C@@H]2O[C@H](C)C[C@H](N(C)C)[C@H]2O)[C@](C)(OC)C[C@@H](C)C(=O)[C@H](C)[C@@H](O)[C@]1(C)O", "tested on": "Escherichia coli ribosome", "test": "in vitro transcription-translation, inhibitor", "endpoint": "IC50", "value": "410 nM"}
{"SMILES": "Fc1ccc(Nc2nc(NC3CCCCC3)c3ccccc3n2)cc1F", "tested on": "β2AR/β1AR ECL1/3 chimera", "test": "β-arrestin2 recruitment, antagonist, BRET", "conditions": "added: isoprenaline 1 µM", "endpoint": "pIC50", "value": 6}
{"SMILES": "C=CC(=O)N1[C@@H](c2ccc3c(c2)OCO3)c2[nH]c3ccccc3c2C[C@H]1C(=O)N1CCN(C)CC1", "tested on": "human cyclin E1 wild type-3xFLAG:CDK2", "test": "co-IP with TMT proteomics, refers to: SRSF3", "conditions": "concentration not given, P84103", "how to read": "relative to: wild type DMSO", "endpoint": "relative co-enrichment", "value": "98%"}
{"SMILES": "CC(C)=CCC/C(C)=C/CC/C(C)=C/Cc1c(O)cc(CO)c(C=O)c1O", "tested on": "StaI (Stachybotrys chartarum)", "test": "substrate", "conditions": "30 min, pH 7.0, 45 °C", "endpoint": "kcat", "value": "0.001 s⁻¹"}
{"SMILES": "CC(=O)NCCCN(C)CCCNc1cccc2c1C(=O)c1cccc(NCCCN(C)CCCNC(C)=O)c1C2=O", "tested on": "telomeric G-quadruplex DNA", "test": "DNA thermal stabilisation, CD melting", "conditions": "concentration not given, pH 7.4, added: 100 mM KCl", "endpoint": "ΔTm", "value": "< 0.5 °C"}
{"SMILES": "Cc1sc2ncn(CC(=O)N3CCCC3)c(=O)c2c1-c1ccc(Cl)cc1", "tested on": "rat GluN1/GluN2A chimera with GluN2D M2, M3 and S2", "test": "two-electrode voltage clamp", "system": "Xenopus oocytes", "conditions": "50 µM", "how to read": "relative to: vehicle", "endpoint": "ion current", "value": "103 ± 1.7%"}
{"SMILES": "c1ccc(-c2n[nH]cc2-c2ccnc3ccccc23)nc1", "tested on": "CDC5 (Candida albicans)", "test": "kinase binding, MIB/MS competition", "system": "Candida albicans lysate", "conditions": "10 µM", "how to read": "relative to: DMSO", "endpoint": "log2 fold change", "value": 0.19}
{"SMILES": "OC[C@@H]1[C@@H](O)[C@H](O)[C@@H](O)CN1CCCCCOCC12CC3CC(C1)CC(COCCCCCN1C[C@H](O)[C@@H](O)[C@H](O)[C@H]1CO)(C3)C2", "tested on": "GBA1 (Homo sapiens, UniProt P04062, R534H)", "test": "inhibitor, 4MU-β-D-glucopyranoside", "conditions": "added: 4MU-β-D-glucopyranoside", "endpoint": "IC50", "value": "340 nM"}
{"SMILES": "C1=NCCCN=Cc2ccc([nH]2)-c2nc3ccccc3nc2-c2ccc1[nH]2", "tested on": "human ACTN3 291-bp linear dsDNA", "test": "high-resolution melt", "conditions": "1.06 µM", "endpoint": "melting temperature", "value": "83.3 °C"}
{"SMILES": "Nc1ncc(-c2cc(-c3cnn(CC(F)(F)F)c3)ncc2F)nc1C(=O)NC1CNCC(F)C1 (stereo not shown)", "tested on": "BMPR1A", "test": "KINOMEscan", "conditions": "1 µM", "how to read": "relative to: DMSO control", "endpoint": "remaining binding", "value": "59%"}
{"SMILES": "NCCOc1cc(NC(=O)c2cc(OCc3cn([C@H]4O[C@@H](CO)[C@H](O)[C@@H](O)[C@@H]4O)nn3)cc(C(=O)Nc3cc(OCCN)c4ccccc4n3)n2)nc2ccccc12", "tested on": "c-kit1 G-quadruplex DNA", "test": "FRET melting", "conditions": "1 µM, pH 7.4, added: 60 mM potassium", "endpoint": "ΔTm", "value": "18.5 ± 0.8 K"}
{"SMILES": "CCN(Cc1ccc(C#CCCO)cc1)CC1CCCN(CCc2cccc(F)c2)C1 (stereo not shown)", "tested on": "Trypanosoma cruzi", "test": "reporter mRNA translation, inhibitor, refers to: capped polyadenylated Renilla luciferase mRNA", "system": "cell-free extract", "conditions": "concentration not given", "how to read": "relative to: control RNA", "endpoint": "relative translation", "value": "121%"}
{"SMILES": "C=CC(=O)Nc1cccc(Cn2ncc3cnc(Nc4cnn(CCOC)c4)nc32)c1", "tested on": "ACVR1 human", "test": "binding, KINOMEscan", "conditions": "100 nM", "how to read": "lower = stronger binding", "endpoint": "percent of control", "value": "97%"}
{"SMILES": "C[C@@H]1CN(c2cc(=O)n(C)c3ccc(C#N)nc23)[C@@H](C)CN1Cc1ccc(S(=O)(=O)n2cnc(C3CC3)n2)cc1", "tested on": "about 280 kinases including DGKζ", "test": "DIA global proteomics", "system": "Jurkat", "conditions": "5 µM, 6 h", "endpoint": "protein abundance", "value": "no effect"}
{"note": "Some of these lines once more:"}
{"SMILES": "Cc1sc2ncn(CC(=O)N3CCCC3)c(=O)c2c1-c1ccc(Cl)cc1", "tested on": "rat GluN1/GluN2A chimera with GluN2D M2, M3 and S2", "test": "two-electrode voltage clamp", "system": "Xenopus oocytes", "conditions": "50 µM", "how to read": "relative to: vehicle", "endpoint": "ion current", "value": "103 ± 1.7%"}
{"SMILES": "OC[C@@H]1[C@@H](O)[C@H](O)[C@@H](O)CN1CCCCCOCC12CC3CC(C1)CC(COCCCCCN1C[C@H](O)[C@@H](O)[C@H](O)[C@H]1CO)(C3)C2", "tested on": "GBA1 (Homo sapiens, UniProt P04062, R534H)", "test": "inhibitor, 4MU-β-D-glucopyranoside", "conditions": "added: 4MU-β-D-glucopyranoside", "endpoint": "IC50", "value": "340 nM"}
